# Experimental data gathered from unrelated publications.
# Protocols differ between the studies behind these lines. ± marks the error that the study gave.
# blaNDM-1: Metallo-beta-lactamase type 2 (blaNDM-1, Klebsiella pneumoniae, UniProt C7C422)
# Chain of UniProt C7C422 (whole entry, looked up): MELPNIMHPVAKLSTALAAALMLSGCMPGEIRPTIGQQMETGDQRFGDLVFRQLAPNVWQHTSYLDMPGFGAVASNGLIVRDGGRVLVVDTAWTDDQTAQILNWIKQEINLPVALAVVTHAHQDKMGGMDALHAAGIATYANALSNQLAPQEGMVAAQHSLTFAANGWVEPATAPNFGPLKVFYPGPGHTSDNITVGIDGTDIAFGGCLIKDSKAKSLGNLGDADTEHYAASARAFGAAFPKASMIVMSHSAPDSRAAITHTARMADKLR
# Oprm1: Mu-type opioid receptor (Oprm1, Rattus norvegicus, UniProt P33535)
# Chain of UniProt P33535 (whole entry, looked up): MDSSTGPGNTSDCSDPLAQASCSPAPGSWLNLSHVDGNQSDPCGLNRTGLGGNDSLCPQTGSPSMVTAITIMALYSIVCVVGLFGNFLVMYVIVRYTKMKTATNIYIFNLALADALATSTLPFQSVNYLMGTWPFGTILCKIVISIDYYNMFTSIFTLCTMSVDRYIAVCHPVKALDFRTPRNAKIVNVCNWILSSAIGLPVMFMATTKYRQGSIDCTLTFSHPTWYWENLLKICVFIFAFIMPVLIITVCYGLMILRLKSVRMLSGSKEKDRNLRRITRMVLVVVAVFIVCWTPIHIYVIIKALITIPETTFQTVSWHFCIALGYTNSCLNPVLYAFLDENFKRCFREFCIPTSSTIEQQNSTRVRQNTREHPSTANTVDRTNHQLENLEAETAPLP
# MCA2: Metacaspase-2 (MCA2, Trypanosoma brucei brucei, UniProt Q585F3)
# Chain of UniProt Q585F3 (whole entry, looked up): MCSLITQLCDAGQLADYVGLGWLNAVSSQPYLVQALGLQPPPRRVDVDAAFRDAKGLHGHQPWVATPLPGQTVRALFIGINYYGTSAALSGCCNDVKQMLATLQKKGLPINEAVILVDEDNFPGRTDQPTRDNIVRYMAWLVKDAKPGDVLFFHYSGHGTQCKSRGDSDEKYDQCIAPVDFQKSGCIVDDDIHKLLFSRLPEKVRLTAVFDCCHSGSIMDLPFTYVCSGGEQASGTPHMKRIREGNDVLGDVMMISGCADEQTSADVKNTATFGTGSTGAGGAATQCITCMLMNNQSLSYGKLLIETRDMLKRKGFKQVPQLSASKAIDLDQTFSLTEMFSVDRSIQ
# Chain of UniProt Q02248 (whole entry, looked up): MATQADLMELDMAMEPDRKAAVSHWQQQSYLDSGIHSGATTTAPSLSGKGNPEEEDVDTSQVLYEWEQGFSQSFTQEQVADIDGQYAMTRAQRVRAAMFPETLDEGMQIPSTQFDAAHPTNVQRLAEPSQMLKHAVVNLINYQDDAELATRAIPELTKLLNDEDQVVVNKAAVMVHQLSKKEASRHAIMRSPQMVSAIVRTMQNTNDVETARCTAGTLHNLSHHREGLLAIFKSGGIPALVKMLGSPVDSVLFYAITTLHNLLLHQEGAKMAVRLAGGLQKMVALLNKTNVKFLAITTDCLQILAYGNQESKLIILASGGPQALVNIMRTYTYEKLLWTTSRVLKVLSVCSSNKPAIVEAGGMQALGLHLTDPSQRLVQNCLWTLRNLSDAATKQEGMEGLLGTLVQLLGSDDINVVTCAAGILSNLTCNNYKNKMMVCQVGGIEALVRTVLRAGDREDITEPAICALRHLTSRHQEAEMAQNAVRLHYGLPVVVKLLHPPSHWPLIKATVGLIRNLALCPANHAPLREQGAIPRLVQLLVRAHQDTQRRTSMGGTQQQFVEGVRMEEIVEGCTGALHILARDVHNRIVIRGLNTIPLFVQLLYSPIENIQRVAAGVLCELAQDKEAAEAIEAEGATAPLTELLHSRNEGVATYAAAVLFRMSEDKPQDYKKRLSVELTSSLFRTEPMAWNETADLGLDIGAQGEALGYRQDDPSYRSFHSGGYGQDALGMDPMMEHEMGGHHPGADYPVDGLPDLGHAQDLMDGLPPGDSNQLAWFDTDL
# Chain of UniProt P41595 (whole entry, looked up): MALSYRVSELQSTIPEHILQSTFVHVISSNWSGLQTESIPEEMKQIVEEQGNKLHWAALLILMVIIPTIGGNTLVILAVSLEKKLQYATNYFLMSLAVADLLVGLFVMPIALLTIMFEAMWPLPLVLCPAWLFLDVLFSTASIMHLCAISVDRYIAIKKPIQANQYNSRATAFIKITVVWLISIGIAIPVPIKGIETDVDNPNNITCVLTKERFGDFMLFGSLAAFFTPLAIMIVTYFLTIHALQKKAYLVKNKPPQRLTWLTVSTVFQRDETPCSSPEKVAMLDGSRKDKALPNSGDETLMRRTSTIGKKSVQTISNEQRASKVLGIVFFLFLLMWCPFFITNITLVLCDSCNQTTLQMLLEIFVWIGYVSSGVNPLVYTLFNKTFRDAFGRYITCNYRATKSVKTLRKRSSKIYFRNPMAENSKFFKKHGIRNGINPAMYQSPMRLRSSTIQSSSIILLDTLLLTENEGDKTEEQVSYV
# Chain of UniProt P48729 (whole entry, looked up): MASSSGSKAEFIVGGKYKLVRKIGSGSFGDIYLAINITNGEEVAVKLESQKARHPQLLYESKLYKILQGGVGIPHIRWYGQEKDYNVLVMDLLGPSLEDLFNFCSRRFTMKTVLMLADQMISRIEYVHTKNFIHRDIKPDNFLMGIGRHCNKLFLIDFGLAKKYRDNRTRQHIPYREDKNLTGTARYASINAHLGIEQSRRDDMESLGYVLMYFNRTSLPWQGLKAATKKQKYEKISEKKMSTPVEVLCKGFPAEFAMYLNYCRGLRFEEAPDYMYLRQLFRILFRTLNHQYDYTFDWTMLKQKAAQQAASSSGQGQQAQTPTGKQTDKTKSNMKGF
# Chain of UniProt P51955 (whole entry, looked up): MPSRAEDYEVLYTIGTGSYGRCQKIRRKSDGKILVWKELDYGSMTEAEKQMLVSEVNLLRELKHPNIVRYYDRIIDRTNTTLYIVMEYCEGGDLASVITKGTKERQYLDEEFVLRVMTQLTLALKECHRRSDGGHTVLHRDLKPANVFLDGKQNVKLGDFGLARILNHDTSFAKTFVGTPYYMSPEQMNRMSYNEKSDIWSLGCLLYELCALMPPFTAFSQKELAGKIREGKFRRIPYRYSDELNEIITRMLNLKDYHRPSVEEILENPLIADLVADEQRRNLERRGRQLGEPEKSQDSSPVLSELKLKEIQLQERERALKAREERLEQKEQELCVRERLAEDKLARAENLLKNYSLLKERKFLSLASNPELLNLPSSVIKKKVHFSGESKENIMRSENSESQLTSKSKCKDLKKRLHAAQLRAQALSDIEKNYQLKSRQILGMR
# Chain of UniProt P32300 (whole entry, looked up): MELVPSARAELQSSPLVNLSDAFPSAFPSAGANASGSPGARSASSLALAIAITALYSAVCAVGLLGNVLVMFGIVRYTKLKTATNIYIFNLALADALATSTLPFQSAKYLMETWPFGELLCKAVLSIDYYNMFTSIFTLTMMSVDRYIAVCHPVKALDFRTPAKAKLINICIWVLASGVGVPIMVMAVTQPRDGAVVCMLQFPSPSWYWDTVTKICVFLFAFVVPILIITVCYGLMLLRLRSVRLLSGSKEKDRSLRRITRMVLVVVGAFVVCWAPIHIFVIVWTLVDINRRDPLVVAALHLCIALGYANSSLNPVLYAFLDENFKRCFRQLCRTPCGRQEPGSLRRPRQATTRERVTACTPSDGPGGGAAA
# Chain of UniProt Q2FDS6 (whole entry, looked up): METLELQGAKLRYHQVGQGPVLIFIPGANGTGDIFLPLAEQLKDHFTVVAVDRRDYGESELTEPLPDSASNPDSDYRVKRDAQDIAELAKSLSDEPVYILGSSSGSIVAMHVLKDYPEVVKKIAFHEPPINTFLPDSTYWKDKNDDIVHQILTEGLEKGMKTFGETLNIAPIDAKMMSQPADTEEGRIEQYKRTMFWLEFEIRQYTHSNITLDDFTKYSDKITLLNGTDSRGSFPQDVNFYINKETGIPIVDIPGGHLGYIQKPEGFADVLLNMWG
SMILES,tested on,test,test system,setting,scale,endpoint,result
Cc1cc(O)cc(C)c1C[C@H](N)C(=O)N[C@H](CCCNC(=N)N)C(=O)N[C@@H](Cc1ccccc1)C(=O)N[C@@H](CCCCN)C(=O)NCCCCCC(=O)N[C@@H](CCCCNC(=O)CN1CCN(CC(=O)O)CCN(CC(=O)O)CCN(CC(=O)O)CC1)C(N)=O,"Delta-type opioid receptor (Oprd1, Mus musculus, UniProt P32300)","ligand displacement, radioligand",,cell membranes,,Ki,0.0431 µM
CSCC[C@@H]1NC(=O)[C@@H](CCCNC(=N)N)NC(=O)[C@H](CC(=O)O)NC(=O)[C@H]2CCCN2C(=O)[C@@H]([C@H](C)O)NC(=O)[C@H](C(C)C)NC(=O)[C@@H]2CCCN2C(=O)[C@@H](CS)NC1=O,blaNDM-1,"enzyme activity, inhibitor",,added: nitrocefin 1.5 µM,,Ki,22.6 µM
COc1ccccc1-c1n[nH]c2nc(NC3CCN(C(=O)Cc4ccc(F)cc4F)CC3)ncc12,,"bead binding, competition bead pull-down, item: LINJ.30.0990",Leishmania donovani axenic amastigote extract,10 µM,reference: vehicle,relative abundance,0.94
CC(C)[C@H]1NC(=O)C[C@H]2/C=C/CCSSC[C@@H](NC1=O)C(=O)N[C@H](Cc1cccc3ccccc13)C(=O)NCC(=O)O2,"Casein kinase I isoform alpha (CSNK1A1, Homo sapiens, UniProt P48729)","enzyme activity, inhibitor",,10 µM,,inhibition,15.4%
CCCC[C@@H]1NC(=O)[C@@H](CCC(N)=O)NC(=O)[C@H]2CCCN2C(=O)[C@H](CCCCN)NC(=O)[C@@H]2C[C@@H](O)CN2C(=O)[C@H](Cc2ccccc2CN)NC(=O)[C@@H]2CCCN2C(=O)[C@@H](CS)NC1=O,blaNDM-1,"enzyme activity, inhibitor",,added: nitrocefin 1.5 µM,,Ki,114 µM
CN(C)[C@H]1C[C@@]23CC[C@@]4(O2)C(=CC[C@]2(C)[C@@H](c5ccc6ccncc6c5)CC[C@H]24)C=C3[C@@H](O)[C@@H]1O,"Serine/threonine-protein kinase Nek2 (NEK2, Homo sapiens, UniProt P51955)","ATP probe labelling, inhibitor, KiNativ profiling",,0.1 µM,,inhibition,14%
O[C@H]1[C@H](n2cnc3c(N[C@@H](C4CCC4)C4CC4)nc(I)nc32)[C@H]2C[C@@]2(C(F)F)[C@H]1O,"5-hydroxytryptamine receptor 2B (HTR2B, Homo sapiens, UniProt P41595)","ligand displacement, radioligand",,,,Ki,0.0438 µM
N=C(N)NCCC[C@H]1NC(=O)[C@@H](Cc2ccc(O)cc2)NC(=O)[C@H](CCCCN)NC(=O)[C@H](Cc2ccccc2)NC1=O,Oprm1,"ligand displacement, radioligand",,cell membranes,,Ki,0.205 µM
C[C@H](NC(=O)[C@H](CCCCN)NC(=O)c1ccccc1N)C(=O)N[C@@H](CO)C(=O)N[C@@H](CO)C(=O)N[C@@H](CO)C(=O)N[C@@H](C)C(=O)N[C@@H](CCC(N)=O)C(=O)NCCNc1ccc([N+](=O)[O-])cc1[N+](=O)[O-],MCA2,"enzyme activity, competitive inhibitor",Trypanosoma brucei,added: Z-FR-AMC substrate,,Ki,7.8 µM
CC(C)(C)C(=O)OCOP(=O)(OCOC(=O)C(C)(C)C)C1CCCN(O)C1=O (stereo not shown),UACC-257,,,,,TGI,13.5 µM
Cc1cc(B2OC(C)(C)C(C)(C)O2)ccc1S(N)(=O)=O,"Uncharacterized hydrolase SAUSA300_2518 (Staphylococcus aureus, UniProt Q2FDS6)","enzyme activity, inhibitor",,,,Ki,4.62 µM
O=C1NC2(CC2)COc2ncc(F)cc2[C@H]2COCCN2c2ccn3ncc1c3n2,,,"Sprague-Dawley rat, female, thymus","oral, 5 mg/kg/day, 4 weeks dosing, end of recovery",,organ-to-brain weight ratio,20.3 ± 5.29%
Cc1cc(O)cc(C)c1C[C@H](N)C(=O)N[C@H](CCCNC(=N)N)C(=O)N[C@@H](Cc1ccccc1)C(=O)N[C@@H](CCCCN)C(=O)NCCNC(=O)[C@@H]1Cc2ccccc2CN1C(=O)[C@@H](N)Cc1c(C)cc(O)cc1C,Oprm1,"ligand displacement, radioligand",,cell membranes,,Ki,0.00444 µM
CC(C)c1cc2c(c(O)c1O)C1(C=O)CCCC(C)(C)C1CC2 (stereo not shown),"Catenin beta-1, armadillo repeat domain (Mus musculus, UniProt Q02248)","binding to HD2, inhibitor, ELISA",,added: His-HD2 with GST-ARD,,Ki,4.8 ± 1 µM
CC(C)C[C@H](NC(=O)[C@H](CCCCN)NC(=O)[C@H](CCCCN)NC(=O)Cc1ccccc1)B(O)O,"Genome polyprotein, NS2B-NS3 protease (ZIKV, UniProt A0A024B7W1)",inhibitor,Zika virus,,,Ki,0.845 ± 0.236 µM
C[C@H](NC(=O)[C@H](CO)NC(=O)[C@H](CO)NC(=O)[C@H](CCCNC(=N)N)NC(=O)[C@H](Cc1ccccc1)NC(=O)[C@H](CCCCN)NC(=O)c1ccccc1N)C(=O)N[C@@H](CCC(N)=O)C(=O)NCCNc1ccc([N+](=O)[O-])cc1[N+](=O)[O-],MCA2,substrate,,"pH 7.4, 25 °C, added: 1 mM CaCl2",,Ki,27.1 µM

# For quick reference, copied from above:
SMILES,tested on,test,test system,setting,scale,endpoint,result
N=C(N)NCCC[C@H]1NC(=O)[C@@H](Cc2ccc(O)cc2)NC(=O)[C@H](CCCCN)NC(=O)[C@H](Cc2ccccc2)NC1=O,Oprm1,"ligand displacement, radioligand",,cell membranes,,Ki,0.205 µM
C[C@H](NC(=O)[C@H](CCCCN)NC(=O)c1ccccc1N)C(=O)N[C@@H](CO)C(=O)N[C@@H](CO)C(=O)N[C@@H](CO)C(=O)N[C@@H](C)C(=O)N[C@@H](CCC(N)=O)C(=O)NCCNc1ccc([N+](=O)[O-])cc1[N+](=O)[O-],MCA2,"enzyme activity, competitive inhibitor",Trypanosoma brucei,added: Z-FR-AMC substrate,,Ki,7.8 µM
